Published values pooled from the literature.
± marks the error that the study gave.
HLA class I histocompatibility antigen, A alpha chain allele A*26:01: HLA class I histocompatibility antigen, A alpha chain, allele A*26:01 (Homo sapiens, UniProt P04439)
HLA class I histocompatibility antigen, A alpha chain allele A*24:02: HLA class I histocompatibility antigen, A alpha chain, allele A*24:02 (Homo sapiens, UniProt P04439)
HLA class I histocompatibility antigen, A alpha chain allele A*02:01: HLA class I histocompatibility antigen, A alpha chain, allele A*02:01 (Homo sapiens, UniProt P04439)
MGLL: Monoglyceride lipase (MGLL, Homo sapiens, UniProt Q99685)
HLA class I histocompatibility antigen, A alpha chain allele A*01:01: HLA class I histocompatibility antigen, A alpha chain, allele A*01:01 (Homo sapiens, UniProt P04439)
ADRA1B: Alpha-1B adrenergic receptor (ADRA1B, Homo sapiens, UniProt P35368)

SMILES	target	assay	system	setting	IC50
CC(C)[C@H](NC(=O)[C@@H](NC(=O)[C@@H](NC(=O)[C@@H](NC(=O)[C@@H](NC(=O)[C@H](Cc1ccccc1)NC(=O)[C@H](CCC(=O)O)NC(=O)[C@@H](N)CC(=O)O)C(C)C)C(C)C)C(C)C)[C@@H](C)O)C(=O)O	HLA class I histocompatibility antigen, A alpha chain allele A*26:01	peptide-MHC binding, radioligand competition binding	–	–	9.55 µM
COc1ccc(-c2cccc(Nc3cc(=O)n(O)c(=O)n3C)c2)cc1	Holliday junction resolvase (Fowlpox virus, UniProt Q9J546)	–	–	–	1.36 µM
CSCC[C@H](NC(=O)[C@@H](N)Cc1ccc(O)cc1)C(=O)N[C@@H](CC(N)=O)C(=O)N[C@@H](CCC(N)=O)C(=O)N1CCC[C@H]1C(=O)N1CCC[C@H]1C(=O)N[C@@H](Cc1ccccc1)C(=O)N[C@H](C(=O)N[C@@H](Cc1ccccc1)C(=O)O)[C@@H](C)O	HLA class I histocompatibility antigen, A alpha chain allele A*24:02	binding	–	–	5.17 µM
COc1cc(Nc2ncc(F)c(Nc3ccc4c(n3)NC(=O)C(C)(C)O4)n2)cc(OC)c1OC	Prostaglandin E2 receptor EP2 subtype (PTGER2, Homo sapiens, UniProt P43116)	–	–	–	> 10 µM
CSCC[C@H](NC(=O)[C@H](CC(C)C)NC(=O)[C@@H](N)CCCNC(=N)N)C(=O)N[C@@H](CC(=O)O)C(=O)N[C@@H](CCCCN)C(=O)N1CCC[C@H]1C(=O)N[C@@H](Cc1c[nH]cn1)C(=O)N[C@@H](CO)C(=O)N[C@@H](Cc1ccc(O)cc1)C(=O)O	HLA class I histocompatibility antigen, A alpha chain allele A*02:01	binding	–	–	7.41 µM
COc1ccc2c(c1NC(=O)CCCCCN1C(=O)C=CC1=O)CCCC=C2c1cc(OC)c(OC)c(OC)c1	Tubulin alpha-1B chain/TUBB2B (Bos taurus, UniProt P81947+Q6B856)	tubulin polymerization, inhibitor, turbidimetric	–	20 min, 30 °C, added: tubulin 10 µM	3.2 ± 2 µM
CSCC[C@H](NC(=O)[C@@H](N)CCCCN)C(=O)N[C@@H](Cc1ccccc1)C(=O)N[C@@H](CC(=O)O)C(=O)N[C@@H](CCC(=O)O)C(=O)N[C@@H](Cc1ccccc1)C(=O)N[C@@H](Cc1c[nH]cn1)C(=O)N[C@H](C(=O)N[C@@H](Cc1ccc(O)cc1)C(=O)O)C(C)C	HLA class I histocompatibility antigen, A alpha chain allele A*02:01	binding	–	–	1.35 µM
OC[C@H]1O[C@@H](OCCc2ccccc2)[C@H](O)[C@@H](O)[C@H]1O	lacI (Escherichia coli, UniProt P03023, D149A/N125A)	inhibitor	–	–	170 µM
COc1ccc(S(=O)(=O)Oc2ccc3c(c2)Oc2nc4c(c(N)c2C3c2cccc(OC)c2)CCCC4)cc1 (centres unmarked)	Beta-secretase 1 (BACE1, Homo sapiens, UniProt P56817)	enzyme activity, inhibitor	–	–	1.47 µM
CCCCC/C=C\C/C=C\C/C=C\C/C=C\CCCC(=O)C(F)(F)F	MGLL	enzyme activity, inhibitor	–	added: FP-biotin 1 µM	0.268 µM
CNC(C)Cc1ccc2nonc2c1 (centres unmarked)	Solute carrier family 22 member 2 (SLC22A2, Homo sapiens, UniProt O15244)	–	–	–	15 ± 7.4 µM
CC(C)C[C@H](NC(=O)[C@@H](N)CCC(=O)O)C(=O)N1CCC[C@H]1C(=O)N[C@@H](CC(=O)O)C(=O)N[C@@H](CCC(=O)O)C(=O)N[C@@H](Cc1ccccc1)C(=O)N[C@H](C(=O)N[C@H](C(=O)N[C@H](C(=O)N[C@H](C(=O)N[C@H](C(=O)O)C(C)C)[C@@H](C)O)C(C)C)C(C)C)C(C)C	HLA class I histocompatibility antigen, A alpha chain allele A*02:01	peptide-MHC binding, radioligand competition binding	–	–	0.0016 µM
CO[C@H]1C[C@H](O[C@@H]2/C(C)=C/C[C@@H]3C[C@@H](C[C@]4(CC[C@H](C)[C@@H](C5CCCCC5)O4)O3)OC(=O)[C@@H]3C=C(C)/C(=N/O)[C@H]4OC/C(=C\C=C\[C@@H]2C)[C@]43O)O[C@@H](C)[C@@H]1O	Nuclear receptor subfamily 1 group I member 2 (NR1I2, Homo sapiens, UniProt O75469)	–	–	–	0.9 ± 0.31 µM
COc1c2ccoc2cc2oc(=O)ccc12	Palmitoleoyl-protein carboxylesterase NOTUM (NOTUM, Homo sapiens, UniProt Q6P988)	enzyme activity, inhibitor	–	added: fluorogenic substrate DO	0.0187 µM
CCCC[C@H]1C(=O)N(C)[C@@H](CCCC)C(=O)N[C@@H](CCCNC(=O)CN2CCN(CC(=O)O)CCN(CC(=O)O)CCN(CC(=O)O)CC2)C(=O)N[C@H](C(=O)NCC(N)=O)CSCC(=O)N[C@@H](Cc2ccc(O)cc2)C(=O)N(C)[C@@H](C)C(=O)N[C@@H](CC(N)=O)C(=O)N2CCC[C@H]2C(=O)N[C@@H](Cc2c[nH]cn2)C(=O)N[C@@H](CC(C)C)C(=O)N2C[C@H](O)C[C@H]2C(=O)N[C@@H](Cc2c[nH]c3ccccc23)C(=O)N[C@@H](CO)C(=O)N[C@@H](Cc2cn(C)c3ccccc23)C(=O)N1C	Programmed cell death 1 ligand 1 (Cd274, Mus musculus, UniProt Q9EP73)	competitive binding	4T1	1 h, 37 °C, added: 177Lu-labelled peptide	0.00731 µM
CC[C@H](C)[C@H](NC(=O)[C@@H]1CCCN1C(=O)[C@H](CC(N)=O)NC(=O)[C@H](CC(C)C)NC(=O)[C@@H](N)CCCNC(=N)N)C(=O)NCC(=O)N[C@@H](Cc1ccc(O)cc1)C(=O)N[C@@H](CO)C(=O)N[C@@H](Cc1ccc(O)cc1)C(=O)O	HLA class I histocompatibility antigen, A alpha chain allele A*01:01	binding	–	–	0.786 µM
CC(=O)N1CCC(C(=O)NCCc2cccs2)CC1	DNA repair protein REV1, C-terminal domain (Homo sapiens, UniProt Q9UBZ9)	REV1 C-terminal domain-RIR interaction, inhibitor, fluorescence polarization displacement	–	–	> 100 µM
C[C@H]1CN(c2n[nH]c3nc(N[C@H]4CC[C@H](NS(=O)(=O)CCC(F)(F)F)CC4)ncc23)CCO1	Neurofilament medium polypeptide (Homo sapiens, UniProt P07197)	biochemical	–	–	≥ 20 µM
O=C(OC(C(F)(F)F)C(F)(F)F)N1CCC(C(O)(c2ccc3c(c2)OCO3)c2ccc3c(c2)OCO3)CC1	MGLL	enzyme activity, inhibitor	–	added: FP-biotin 1 µM	0.022 µM
CSCC[C@H](NC(=O)[C@@H](N)CCCNC(=N)N)C(=O)N[C@@H](Cc1ccccc1)C(=O)NCC(=O)N1CCC[C@H]1C(=O)N[C@H](C(=O)N[C@@H](CCC(N)=O)C(=O)N[C@H](C(=O)N[C@@H](Cc1ccc(O)cc1)C(=O)O)[C@@H](C)O)C(C)C	HLA class I histocompatibility antigen, A alpha chain allele A*02:01	binding	–	–	16.6 µM
O=CCc1ccccc1	uncharacterized protein (Drosophila suzukii, UniProt A0AB39ZCT4)	binding, bis-ANS competition fluorescence	–	pH 7.4, added: bis-ANS	> 50 µM
O=C(NCc1ccc(F)cc1)c1cccc(Nc2ccc(-c3ccccc3)nn2)c1	Anoctamin-1 (ANO1, Homo sapiens, UniProt Q5XXA6, del476-501)	inhibitor	–	–	41.9 ± 4.8 µM
CSCC[C@H](NC(=O)[C@H](C)N)C(=O)N[C@@H](Cc1ccc(O)cc1)C(=O)NCC(=O)N[C@@H](CCCNC(=N)N)C(=O)N[C@@H](CO)C(=O)N[C@@H](CC(C)C)C(=O)N[C@@H](CCC(N)=O)C(=O)N[C@@H](Cc1ccccc1)C(=O)O	HLA class I histocompatibility antigen, A alpha chain allele A*02:01	binding	–	–	0.952 µM
CC(C)[C@H](NC(=O)[C@@H](NC(=O)[C@H](CCC(=O)O)NC(=O)[C@@H](NC(=O)[C@H](Cc1ccccc1)NC(=O)[C@H](C)NC(=O)[C@H](CO)NC(=O)[C@@H](NC(=O)[C@@H](N)CO)[C@@H](C)O)C(C)C)[C@@H](C)O)C(=O)O	HLA class I histocompatibility antigen, A alpha chain allele A*26:01	peptide-MHC binding, radioligand competition binding	–	–	12.1 µM
CC[C@H](C)[C@H](NC(=O)[C@@H]1CCCN1C(=O)[C@H](CCCCN)NC(=O)[C@@H]1CCCN1C(=O)[C@H](CCSC)NC(=O)[C@H](CCC(N)=O)NC(=O)[C@@H](N)Cc1ccc(O)cc1)C(=O)N[C@H](C(=O)N[C@@H](Cc1ccccc1)C(=O)O)[C@@H](C)O	HLA class I histocompatibility antigen, A alpha chain allele A*02:01	binding	–	–	15.3 µM
COc1cc(C(=O)N2CC[C@@H](O)[C@@H](N)C2)cc2nc(-c3cc4ccccc4n3CC3CC3)n(C)c12	ADRA1B	intracellular calcium, antagonist, luminescence	–	–	12.6 µM
CC[C@H](C)[C@H](NC(=O)[C@H](CCCNC(=N)N)NC(=O)CNC(=O)[C@@H](NC(=O)[C@@H]1CCCN1C(=O)[C@@H](N)CCSC)[C@@H](C)CC)C(=O)N[C@@H](C)C(=O)N[C@@H](CCC(=O)O)C(=O)N[C@@H](CS)C(=O)N[C@H](C(=O)N[C@@H](CC(C)C)C(=O)O)[C@@H](C)CC	HLA class I histocompatibility antigen, A alpha chain allele A*01:01	binding, competitor, radioligand competition	–	two days, room temperature, HLA-A*01:01	> 40 µM
COc1ncccc1-c1cnn2ccc(N3CCN(C(=O)OC(C)C)CC3)nc12	ADRA1B	liability screen	–	–	> 30 µM
CC(C)C[C@H](NC(=O)[C@@H](N)CCCCN)C(=O)N[C@@H](Cc1ccccc1)C(=O)N1CCC[C@H]1C(=O)N[C@@H](Cc1c[nH]cn1)C(=O)N[C@@H](Cc1ccccc1)C(=O)N[C@@H](Cc1ccc(O)cc1)C(=O)N[C@@H](CCCNC(=N)N)C(=O)N[C@@H](Cc1ccccc1)C(=O)O	HLA class I histocompatibility antigen, A alpha chain allele A*24:02	binding	–	–	0.173 µM

Excerpt of the above:
SMILES	target	assay	system	setting	IC50
OC[C@H]1O[C@@H](OCCc2ccccc2)[C@H](O)[C@@H](O)[C@H]1O	lacI (Escherichia coli, UniProt P03023, D149A/N125A)	inhibitor	–	–	170 µM
COc1ncccc1-c1cnn2ccc(N3CCN(C(=O)OC(C)C)CC3)nc12	ADRA1B	liability screen	–	–	> 30 µM
